Published values of several laboratories.
Lines come from different studies, so protocols differ. ± marks the error that the study gave.
CD3E 23-207: CD3E 23-207 (Homo sapiens, UniProt P07766)
UniProt P07766, sequence (whole entry, looked up): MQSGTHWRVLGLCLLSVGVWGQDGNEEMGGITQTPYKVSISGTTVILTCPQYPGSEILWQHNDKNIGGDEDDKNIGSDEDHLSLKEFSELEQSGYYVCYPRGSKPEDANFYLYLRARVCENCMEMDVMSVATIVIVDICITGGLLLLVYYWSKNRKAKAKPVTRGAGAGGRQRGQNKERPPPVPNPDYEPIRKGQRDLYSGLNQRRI
CEBPB: CEBPB 269-344 (Homo sapiens, UniProt P17676)
UniProt P17676, sequence (whole entry, looked up): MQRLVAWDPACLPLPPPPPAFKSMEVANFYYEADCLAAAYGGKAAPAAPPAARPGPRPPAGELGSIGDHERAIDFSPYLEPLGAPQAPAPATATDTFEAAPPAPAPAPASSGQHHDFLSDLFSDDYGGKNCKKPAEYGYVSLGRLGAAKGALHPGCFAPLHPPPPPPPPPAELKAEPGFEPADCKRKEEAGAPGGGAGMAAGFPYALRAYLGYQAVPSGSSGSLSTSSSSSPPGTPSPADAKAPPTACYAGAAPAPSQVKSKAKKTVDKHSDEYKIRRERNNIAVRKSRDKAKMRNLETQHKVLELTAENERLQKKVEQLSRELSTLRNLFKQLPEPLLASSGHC
metK 1-426: metK 1-426 (Sinorhizobium meliloti, UniProt Q92SI4)
EXOSC3 1-275: EXOSC3 fragment (Homo sapiens)
B1: UGT1A9 (Homo sapiens, UniProt O60656); chain GKLLVVPMDGSHWFTMRSVVEKLILRGHEVVVVMPEVSWQLGRSLNCTVKTYSTSYTLEDLDREFKAFAHAQWKAQVRSIYSLLMGSYNDIFDLFFSNCRSLFKDKKLVEYLKESSFDAVFLDPFDNCGLIVAKYFSLPSVVFARGILCHYLEEGAQCPAPLSYVPRILLGFSDAMTFKERVRNHIMHLEEHLLCHRFFKNALEIASEILQTPVTEYDLYSHTSIWLLRTDFVLDYPKPVMPNMIFIGGINCHQGKPLPMEFEAYINASGEHGIVVFSLGSMVSEIPEKKAMAIADALGKIPQTVLWRYTGTRPSNLANNTILVKWLPQNDLLGHPMTRAFITHAGSHGVYESICNGVPMVMMPLFGDQMDNAKRMETKGAGVTLNVLEMTSEDLENALKAVINDKSYKENIMRLSSLHKDRPVEPLDLAVFWVEFVMRHKGAPHLRPAAHDLTWYQYHSLDVIGFLLAVVLTVAFITFKCCAYGYRKCLGKKGRVKKAHKSKTH
UniProt P19466, sequence (whole entry, unmodified, looked up): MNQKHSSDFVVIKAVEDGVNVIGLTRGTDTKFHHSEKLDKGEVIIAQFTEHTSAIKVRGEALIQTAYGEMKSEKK
UniProt P07271, sequence (whole entry, looked up): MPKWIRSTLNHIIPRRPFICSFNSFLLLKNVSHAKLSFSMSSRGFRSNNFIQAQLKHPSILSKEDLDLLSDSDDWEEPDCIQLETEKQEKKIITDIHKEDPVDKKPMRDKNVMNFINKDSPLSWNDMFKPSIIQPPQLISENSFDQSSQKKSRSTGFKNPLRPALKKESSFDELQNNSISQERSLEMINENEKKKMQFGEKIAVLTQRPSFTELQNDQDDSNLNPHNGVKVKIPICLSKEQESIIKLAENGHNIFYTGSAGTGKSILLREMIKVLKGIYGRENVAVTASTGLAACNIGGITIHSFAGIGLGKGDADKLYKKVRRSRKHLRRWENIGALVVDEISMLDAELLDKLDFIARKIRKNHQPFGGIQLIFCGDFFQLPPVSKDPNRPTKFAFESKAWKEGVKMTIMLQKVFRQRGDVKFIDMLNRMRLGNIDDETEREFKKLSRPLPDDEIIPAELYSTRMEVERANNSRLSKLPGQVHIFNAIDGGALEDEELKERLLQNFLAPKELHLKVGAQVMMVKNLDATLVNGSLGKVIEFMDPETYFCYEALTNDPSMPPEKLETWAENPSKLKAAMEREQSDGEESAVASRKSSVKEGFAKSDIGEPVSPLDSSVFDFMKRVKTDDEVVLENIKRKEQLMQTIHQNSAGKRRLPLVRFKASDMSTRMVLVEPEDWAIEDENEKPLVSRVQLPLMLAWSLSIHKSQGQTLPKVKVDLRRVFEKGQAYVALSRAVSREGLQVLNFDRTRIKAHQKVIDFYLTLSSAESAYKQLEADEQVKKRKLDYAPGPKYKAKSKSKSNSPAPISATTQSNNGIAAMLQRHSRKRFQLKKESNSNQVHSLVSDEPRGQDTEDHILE
UniProt P76064, sequence (whole entry, looked up): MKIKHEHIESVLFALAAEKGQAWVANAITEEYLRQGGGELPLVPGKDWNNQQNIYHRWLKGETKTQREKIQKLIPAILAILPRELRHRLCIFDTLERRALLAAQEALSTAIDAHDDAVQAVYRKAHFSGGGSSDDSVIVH
UniProt P76318, sequence (whole entry, looked up): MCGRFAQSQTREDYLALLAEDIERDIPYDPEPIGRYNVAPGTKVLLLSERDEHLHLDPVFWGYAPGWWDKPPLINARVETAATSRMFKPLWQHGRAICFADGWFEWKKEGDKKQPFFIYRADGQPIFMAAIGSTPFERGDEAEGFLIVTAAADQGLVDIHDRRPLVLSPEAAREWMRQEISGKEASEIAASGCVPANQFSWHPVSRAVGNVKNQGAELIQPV
UniProt Q97W02, sequence (whole entry, looked up): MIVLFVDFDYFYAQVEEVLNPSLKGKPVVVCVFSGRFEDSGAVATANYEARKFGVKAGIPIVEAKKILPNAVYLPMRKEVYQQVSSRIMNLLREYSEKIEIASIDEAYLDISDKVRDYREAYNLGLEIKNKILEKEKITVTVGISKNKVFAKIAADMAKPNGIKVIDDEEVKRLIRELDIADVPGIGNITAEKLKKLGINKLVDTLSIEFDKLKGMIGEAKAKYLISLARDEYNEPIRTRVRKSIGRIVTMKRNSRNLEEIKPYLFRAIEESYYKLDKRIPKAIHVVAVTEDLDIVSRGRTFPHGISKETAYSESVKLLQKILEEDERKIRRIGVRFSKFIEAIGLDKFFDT

Substance | target or system | assay | system | setting | endpoint | value
GTCGTCNGGAGNGGGGTAGAGTGGGGNTGGGGCTATGGGGCTAGCATCGGATA (XNA; AEGIS dP at 7, 12, 27) | CD3E 23-207 | flow cytometry | Jurkat.E6 | 37 °C, apparent, not purified | Kd | 57 ± 23 nM
GTGTGTGTGGTGTGTGTGTGTGGTGTATGTATGACAAGGAAGG / CCTTCCTTGTCATACAT (DNA duplex; 17 bp, 5' overhang 26 nt) | PIF1 full length assumed (Saccharomyces cerevisiae, UniProt P07271) | single-molecule PIFE |  | with: ATP 2 mM | Kd | 4.5 nM
GACTACGTACTGTTACGGCTCCATCTCTACCGCAATCAGGCCAGATCTGC (ssDNA; fluorescein on T26) | p44/p62 (Chaetomium thermophilum) | fluorescence anisotropy |  | Mg2+ 5 mM | Kd | 20 nM
AGGATTGCGCAATAT (dsDNA; blunt, 5mC at CpG) | CEBPB | fluorescence polarization | double-stranded DNA, one strand shown |  | Kd | 20 ± 10 nM
TGGACTGTCGTCNGGAGNGGGGTAGAGTGGGGNTGGGGCTATGGGGCTAGCATCGGATA (XNA; AEGIS dP at 13, 18, 33) | CD3E 23-207 | flow cytometry | Jurkat.E6 | 37 °C, apparent, not purified | Kd | 81 ± 29 nM
CGGTNGATTC (ssDNA; THF abasic at position 5) | yedK 2-222 (Escherichia coli, UniProt P76318) | ITC |  |  | Kd | 170 nM
GGGGAUGAAGCAAGGGGGUGCCCCAUGCGUCAGUUUUAUCAGCACUAUUUUACCGCGACAGCGAAGUUGUGCUGGUUGCGUUGGUUAAGCGUCCCACAACGAUUAACCAUGCUUGAAGGACUGAUGCAGUGGGAUGACCGCAAUUCUGAAAGUUGACUUGCCUGCAUCAUGUGUGACUGAGUAUUGGUGUAAAAUCACCCGCCAGCAGAUUAUACCUGCUGGUUUUUUUU (structured RNA) | hfq full length assumed (Escherichia coli, UniProt P0A6X3) | EMSA |  |  | Kd | 3.37 nM
GAUCGAUCGGGCAGCGCACUCCUCCUCCCAGCGCGCCCGAUACGGAUUGGCGACACUCCUCCUCCCGGUUGCCAAUCAGAUCAAGCAACGCCCGCUGGACCUCCUCCCCCAGCGGGCGUUGUU (structured RNA) | metK 1-426 | filter binding |  |  | Kd | 21.2 nM
AGCTGCCAGGCACCAGTGTCA / TGACACTGGTGCTTGGCAGCT (dsDNA; 21-bp, G-T mismatch, dT20 linker) | mutS fragment (Escherichia coli) | SPR |  |  | Kd | 30 ± 4 nM
GGGAGGGAGGGAGAGGGA (ssRNA) | EXOSC3 1-275 | MST |  | apparent | Kd | 5800 ± 1300 nM
GGGUAUCGUGCGCAAUUUUUUCAGAAUCGAAAGGUUCAAAGUACAAAUAAGCAUAUAAGGAAAAGAGAGAAUGGCUAAGGGGCAAUCUUUACAAGAUCCGUUC (structured RNA) | hfq fragment V43C (Escherichia coli) | EMSA |  |  | Kd | 1.1 ± 0.2 nM
GGGCGGAGUAGCUCAGUAGGUUAGAGCAGAGGAAUCAUAAUCCUUGUGUCGGGGGUUCGAAUCCCUCCUCCGCUACCA (structured RNA) | metK 1-426 | filter binding |  |  | Kd | 1.3 nM
UAGUUUAGUUUAGUUUAGUUUAGUUUAGUUUAGUUUAGUUUAGUUUAGUUUAGUU (ssRNA; single strand) | mtrB full length assumed T30V/K37A (Bacillus subtilis, UniProt P19466) | filter binding |  |  | Kd | 115 nM
B1 (UGT1A9) | O=C(/C=C/c1ccc(O)cc1)CC(=O)/C=C/c1ccc(O)cc1 | steady-state kinetics |  | pH 7.4, 37 °C | Vmax | 0.00207 µmol/min/mg
GAGUUGAGUUGAGUUGAGUUGAGUUGAGUUGAGUUGAGUUGAGUUGAGUUGAGUU (ssRNA; single strand) | mtrB full length assumed (Bacillus subtilis, UniProt P19466) | filter binding |  | with: L-tryptophan 1 mM | Kd | 1 ± 0.5 nM
DNA 1 AACGACGGCCAGTGAATTC / DNA 2 CCCGCGCGAATTCACTGGCCGTCGTT (dsDNA; aminopyrene-dG adduct, 5' overhang) | dbh full length assumed (Saccharolobus solfataricus, UniProt Q97W02) | EMSA | double-stranded DNA | with: Mg2+ | Kd | 9.8 ± 0.9 nM
CTGGAGTACAATTCCATTCCATTCCATTCCATTCCATTCCATTCCATTCCATTCCATTCCATTCCATTCCATTCCATTCCATTCCATTCCTAACTTTCTA (dsDNA) | F2 alpha-thrombin (Homo sapiens) | ITC | double-stranded DNA, one strand shown | pH 7.0 | Kd | 3510 nM
TGGCGGCATTAATGCCGTTAATTGCACCTTTTTGCGAACATTTATTCAGTGAAATTTTTAATTTGCTGGCTGATATTATTAGTGAATTGCCATTAATATAATTCCGTAACGTTTATCATGTTATCCTAAGGATTATCCGAAAAATAATACCTACGAACATCTTCCAGGATACTCCTGCAGCGAAATATTTGTTTTAAGCTCACTCACATATCGCAACATTTACTTTACTTTAAGACAATTCCAGGCAAATTATACAACACTTTACGGGATAGTAAGTCCGCCTGAAAAATCGCGAGAGTGGCGCATTAGGTGACCCATGTTGTTCCGTTTAGTCATGATGAAATATTCAGGTAAGGGGAATTATCGTTACGCATTGAGTGAGGGTATGCCATGTCAACGATTATTATGGATTTATGTAGTTACACCCGACTAGGTTTAACC (dsDNA) | ydaT full length assumed (Escherichia coli, UniProt P76064) | spectral shift | double-stranded DNA, one strand shown | with: poly(dI-dC) | Kd | 1230 nM
CATTATCCTAAACATAACTTAACTAGTTTAACTTAATTCTTCAATATACC / GGTATATTGAAGAATTAAGTTAAGCTAGTTAAGTTATGTTTAGGATAATG (dsDNA; blunt, T:G mismatch at 27) | MSH2/MSH6 (Homo sapiens) | EMSA |  | with: ADP 0.1 mM | Kd | 18.9 ± 0.6 nM
GGGAGGG (ssRNA) | EXOSC3 1-275 | MST |  | apparent | Kd | 3580 ± 2500 nM
AGGATTGCGCAATAT (dsDNA; blunt, 5mC at CpA) | CEBPB | fluorescence polarization | double-stranded DNA, one strand shown |  | Kd | 50 ± 10 nM

Excerpt of the above:
Substance | target or system | assay | system | setting | endpoint | value
TGGACTGTCGTCNGGAGNGGGGTAGAGTGGGGNTGGGGCTATGGGGCTAGCATCGGATA (XNA; AEGIS dP at 13, 18, 33) | CD3E 23-207 | flow cytometry | Jurkat.E6 | 37 °C, apparent, not purified | Kd | 81 ± 29 nM
CGGTNGATTC (ssDNA; THF abasic at position 5) | yedK 2-222 (Escherichia coli, UniProt P76318) | ITC |  |  | Kd | 170 nM
GGGGAUGAAGCAAGGGGGUGCCCCAUGCGUCAGUUUUAUCAGCACUAUUUUACCGCGACAGCGAAGUUGUGCUGGUUGCGUUGGUUAAGCGUCCCACAACGAUUAACCAUGCUUGAAGGACUGAUGCAGUGGGAUGACCGCAAUUCUGAAAGUUGACUUGCCUGCAUCAUGUGUGACUGAGUAUUGGUGUAAAAUCACCCGCCAGCAGAUUAUACCUGCUGGUUUUUUUU (structured RNA) | hfq full length assumed (Escherichia coli, UniProt P0A6X3) | EMSA |  |  | Kd | 3.37 nM
